Assay results collected from several papers.
Each line is one published result; not all experiments were run side by side. ± gives the spread as reported.

| SMILES | cell line | assay | system | setting | how to read | measurement | value |
| --- | --- | --- | --- | --- | --- | --- | --- |
| CCCCn1cc(C(=O)O)c(=O)c2cc(F)c3c(nnn3-c3ccccc3Cl)c21 | SW-620 | cell growth or viability, SRB |  |  |  | IC50 | 120 µM |
| CC(=O)Oc1ccc(Cn2ccc(=O)[nH]c2=O)cc1C1OC(c2ccc(Cl)cc2)=NN1C(C)=O (stereo not drawn) | HEL fibroblasts | cell morphology, microscopy |  |  |  | minimum cytotoxic concentration | 100 µM |
| CC(C)C[C@@H]1NC(=O)[C@@H](Cc2c[nH]c3ccccc23)NC(=O)[C@H](CCCCN)NC(=O)[C@@H](Cc2c[nH]cn2)NC(=O)[C@H](CO)NC(=O)[C@@H](Cc2c[nH]cn2)NC(=O)[C@H](CCCCN)NC(=O)[C@@H](Cc2c[nH]c3ccccc23)NC1=O | erythrocytes | hemolysis |  |  |  | HD50 | 145 µM |
| CC[C@H](C)[C@H](NC(=O)[C@H](CCCCN)NC(=O)[C@H](C)NC(=O)[C@H](CCCNC(=N)N)NC(=O)[C@H](CCCCN)NC(=O)[C@H](CC(N)=O)NC(=O)[C@H](CCC(N)=O)NC(=O)[C@H](Cc1ccccc1)NC(=O)[C@H](Cc1c[nH]c2ccccc12)NC(=O)[C@@H](NC(=O)[C@H](CCCCN)NC(=O)[C@@H](NC(=O)[C@H](CCC(N)=O)NC(=O)[C@H](CO)NC(=O)[C@H](CCCNC(=N)N)NC(=O)[C@@H]1CCCN1C(=O)[C@H](CCCNC(=N)N)NC(=O)[C@H](CCCCN)NC(=O)[C@H](CC(=O)O)NC(=O)[C@H](CCC(=O)O)NC(=O)[C@H](CCCCN)NC(=O)[C@H](CC(N)=O)NC(=O)[C@@H]1CCCN1C(=O)[C@H](CC(N)=O)NC(=O)[C@H](CCCCN)NC(=O)[C@H](CCCCN)NC(=O)[C@H](CCCCN)NC(=O)[C@@H]1CCCN1C(=O)[C@H](CCCCN)NC(=O)[C@H](CCCNC(=N)N)NC(=O)[C@H](CO)NC(=O)[C@H](CCCNC(=N)N)NC(=O)CNC(=O)CNC(=O)CNC(=O)CNC(=O)CNC(=O)CCCC[C@@H]1SC[C@@H]2NC(=O)N[C@@H]21)[C@@H](C)CC)[C@@H](C)CC)C(=O)N[C@@H](CCCCN)C(=O)N[C@@H](CCCCN)C(N)=O | CHO pgsA-745 (GAG-deficient) | MALDI-TOF MS |  | 7 µM, 1 h, added: heparin up to 7.2 µg/mL |  | cellular uptake | ~20 pmol |
| c1ccc(Nc2c3c(nc4ccccc24)CCCC3)cc1 | HepG2 | MTT |  | 50 µM, 24 h, 10% FBS |  | inhibition | 5 ± 0.3% |
| CCCCn1cc(C(=O)O)c(=O)c2cc(F)c(Nc3cccc(Cl)c3)c([N+](=O)[O-])c21 | SW-620 | cell growth, SRB |  | 72 h |  | IC50 | 110 ± 4.75 µg/mL |
| O=P(O)(O)Oc1c2c(c(OP(=O)(O)O)c3c1C1CC3c3cc4ccccc4cc31)C1CC2c2cc3ccccc3cc21 | TZM-bl | CellTiter-Glo |  | 2 days |  | highest non-toxic concentration | ≤ 250 µM |
| Cc1cc(O)c2c(C(=O)[O-])[n+]3n(c2c1)CCCC3 | HepG2 | cell growth or viability, CCK-8 |  | 20 µM, 24 h |  | viability | 92.3% |
| CC(=O)Oc1ccc(Cn2cc(C)c(=O)[nH]c2=O)cc1C1OC(c2ccc(Cl)cc2)=NN1C(C)=O (stereo not drawn) | HEL fibroblasts | cell morphology, microscopy |  |  |  | minimum cytotoxic concentration | ≥ 20 µM |
| CCCCCC1CCCCCCC(=O)CCC(=O)OCC2OC(OC3C(O1)OC(C)C(OC(C)=O)C3O)C(O)C(O)C2OC(=O)C=Cc1ccccc1 (stereo not drawn) | MDA-MB-231 | cytotoxicity |  |  |  | IC50 | 6.85 µM |
| CC(=O)OC[C@H]1O[C@@H](NC(=O)[C@@H](C)Cc2ccc(C(C)C)cc2)[C@H](OC(C)=O)[C@@H](OC(C)=O)[C@@H]1OC(C)=O | HEL fibroblasts | cell morphology |  | 3 days |  | minimal cytotoxic concentration | > 100 µM |
| CC(=O)Oc1ccc(Cn2cc(C)c(=O)[nH]c2=O)cc1C1OC(c2ccccc2)=NN1C(C)=O (stereo not drawn) | HEL fibroblasts | cell morphology alteration |  |  |  | minimum cytotoxic concentration | ≥ 20 µM |
| CC(C)c1ccc(C[C@H](C)C(=O)N[C@@H]2O[C@H](CO)[C@@H](O)[C@H](O)[C@H]2O)cc1 | HEL fibroblasts | cell morphology |  | 3 days |  | minimal cytotoxic concentration | > 100 µM |
| CCCN(CCC)CC1=C(O)C(=O)c2ccccc2C1=O | BGM (monkey kidney) | MTT | 10% FCS | 24 h |  | median lethal concentration | 2470 ± 240 µM |
| CC(=O)OC[C@H]1O[C@@H](NC(=O)/C=C/c2ccc(-c3ccccc3)cc2)[C@H](OC(C)=O)[C@@H](OC(C)=O)[C@@H]1OC(C)=O | HEL fibroblasts | cell morphology |  | 3 days |  | minimal cytotoxic concentration | > 100 µM |
| COc1c(OC(=O)N(C)c2cccc(C)c2)cc2oc3cc4c(c(O)c3c(=O)c2c1CC=C(C)C)C=CC(C)(C)O4 | PC-12 | cell proliferation, MTT |  | 10 µM, 24 h |  | inhibition | 0% |
| CCCCn1cc(C(=O)O)c(=O)c2cc(F)c3c(nnn3-c3cccc(Cl)c3)c21 | SW-620 | cell growth, SRB |  | 72 h |  | IC50 | 45.7 ± 1.22 µg/mL |
| [Cl-].[Cl-].[Ni+2].c1ccc(CN2CCNCCN(Cc3ccccc3)CCNCC2)cc1 | THP-1 | cytotoxicity |  |  |  | IC90 | > 20 µM |
| C[C@@H](NC(=O)[C@H](Cc1ccccc1)NC(=O)[C@@H](CCCNC(=N)N)NC(=O)[C@H](CCCN)NC(=O)[C@@H]1CNC(=O)c2cc3cc(c2)C(=O)N[C@H](Cc2ccc4ccccc4c2)C(=O)N[C@@H](CO)C(=O)N[C@@H](CC(N)=O)C(=O)N[C@H](Cc2ccc4ccccc4c2)C(=O)N[C@@H](c2ccccc2)C(=O)N[C@@H](CCCCNC3=O)C(=O)N[C@H](Cc2ccccc2)C(=O)N[C@@H](CCC(N)=O)C(=O)N[C@H](CCCNC(=N)N)C(=O)N[C@@H](CCCNC(=N)N)C(=O)N1)C(N)=O | H358 |  |  | 45 min, range tested 0 to 20 µM |  | concentration causing LDH release | ≥ 20 µM |
| CN1C/C(=C\c2ccccc2)C2=NN(C(N)=S)[C@H](c3ccccc3)[C@@H]2C1 | CHO | resazurin |  | 48 h, 10% FBS |  | highest non-cytotoxic concentration | > 200 µg/mL |
| Cc1cccc(Nc2c3c(nc4ccccc24)CCCC3)n1 | HepG2 | MTT |  | 50 µM, 24 h, 10% FBS |  | inhibition | 6.14 ± 0.23% |
| COc1c(OC(=O)N(C)c2cccc(Cl)c2)cc2oc3cc4c(c(O)c3c(=O)c2c1CC=C(C)C)C=CC(C)(C)O4 | PC-12 | cell proliferation, MTT |  | 10 µM, 24 h |  | inhibition | 0% |
| CCCCn1cc(C(=O)O)c(=O)c2cc(F)c(Nc3cccc(Cl)c3)c(N)c21 | HCT-116 | cell growth, SRB |  | 72 h |  | IC50 | 0.34 ± 0.04 µg/mL |
| CCCCCCCCCCCC(=O)NCCCC[C@H](NC(=O)[C@H](C)NC(=O)[C@H](C)NC(=O)[C@H](C)NC(=O)[C@H](C)NC(=O)[C@H](C)NC(=O)[C@H](C)NC(=O)[C@H](CCCCN)NC(=O)[C@H](CCCCN)NC(=O)[C@H](CCCCNC(=O)CC[C@H](NC(=O)[C@@H](NC(=O)[C@@H]1CSSC[C@H](NC(=O)[C@H](CC(=O)O)NC(=O)[C@@H](N)Cc2c[nH]c3ccccc23)C(=O)N[C@@H](CC(C)C)C(=O)N[C@@H](CC(=O)O)C(=O)N[C@@H](CC(N)=O)C(=O)N[C@@H](CCCNC(=N)N)C(=O)N[C@@H]([C@@H](C)CC)C(=O)NCC(=O)N[C@@H](CCCNC(=N)N)C(=O)N[C@@H](CCCNC(=N)N)C(=O)N[C@@H](CCC(N)=O)C(=O)N1)C(C)C)C(=O)N[C@@H](CC(C)C)C(N)=O)NC(=O)CC[C@H](NC(=O)[C@@H](NC(=O)[C@@H]1CSSC[C@H](NC(=O)[C@H](CC(=O)O)NC(=O)[C@@H](N)Cc2c[nH]c3ccccc23)C(=O)N[C@@H](CC(C)C)C(=O)N[C@@H](CC(=O)O)C(=O)N[C@@H](CC(N)=O)C(=O)N[C@@H](CCCNC(=N)N)C(=O)N[C@@H]([C@@H](C)CC)C(=O)NCC(=O)N[C@@H](CCCNC(=N)N)C(=O)N[C@@H](CCCNC(=N)N)C(=O)N[C@@H](CCC(N)=O)C(=O)N1)C(C)C)C(=O)N[C@@H](CC(C)C)C(N)=O)C(N)=O | MDA-MB-231 | MTS |  |  |  | cytotoxic concentration | > 1 µM |
| CC(=O)N[C@@H](CC(=O)O)C(=O)N[C@@H](CCC(=O)O)C(=O)N[C@@H](CC(=O)O)C(=O)N[C@H](C(=O)NCC(=O)NCC(=O)NCC(=O)NCCNC(=O)OCC1c2ccccc2-c2ccccc21)C(C)C | HepG2 | western blot, refers to: cleaved PARP |  | 400 µM, 72 h | reference: 10 µM camptothecin | apoptotic level | 58% |
| CC(C)C1=CC2=C(C=O)C[C@@H]3[C@](C)(CCC[C@@]3(C)C(=O)OCC#CCN3CCCC3)[C@H]2CC1 | BHK-21-hACE2 |  |  | 20.0 µM, 48 (unit not given) |  | viability | 89.3% |
| CCCCCCCCCCCCCCCC(=O)N[C@@H](CCCCN)C(=O)N1CCC[C@H]1C(=O)N[C@H](C(N)=O)C(C)C | murine erythrocytes | hemolysis |  | 1 h |  | HC50 | 62.5 µM |
| Fc1ccc(Nc2c3c(nc4ccccc24)CCCC3)cc1 | HepG2 | MTT |  | 50 µM, 24 h, 10% FBS |  | inhibition | -1.23 ± 0.16% |
| COc1ccccc1N(C)C(=O)Oc1cc2oc3cc4c(c(O)c3c(=O)c2c(CC=C(C)C)c1OC)C=CC(C)(C)O4 | PC-12 | cell proliferation, MTT |  | 10 µM, 24 h |  | inhibition | 7.4% |
| N=C(N)NCCC[C@@H]1NC(=O)[C@H](Cc2csc3ccccc23)NC(=O)[C@@H](Cc2ccccc2)NC(=O)[C@H](Cc2ccccc2)NC(=O)[C@H](CCC(=O)NCCOCCOCC(=O)N[C@@H](CCCCNC(=O)c2ccc3c(c2)C(=O)OC32c3ccc4cc(O)ccc4c3Oc3c2ccc2cc(O)ccc32)C(N)=O)NC(=O)[C@@H](CCCNC(=N)N)NC(=O)[C@H](CCCNC(=N)N)NC(=O)[C@@H](CCCNC(=N)N)NC1=O | HeLa | flow cytometry |  | 1.0 µM, 2 h, 1% FBS | reference: CPP12 | cellular uptake | 88 ± 8% |
